Experimental data collected from several papers.
Parts stem from different laboratories: compare values within a part only. Positions count from the first letter of the parent shown.

Set 1
Target: RNA binding protein fox-1 homolog 2, RRM domain, GST-SBP tag (RBFOX2, Homo sapiens, UniProt O43251-10, residues 100-194)
Method: RNA Bind-n-Seq
Form: RNA
Sample: in vitro
Tested at: 365 nM
Notes: natural RNA segment, single round, ends assumed
Relative to: no-protein control
Reading: higher = stronger binding
Construct (chain): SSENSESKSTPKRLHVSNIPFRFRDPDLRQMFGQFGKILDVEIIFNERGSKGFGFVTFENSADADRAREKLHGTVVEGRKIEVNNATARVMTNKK
`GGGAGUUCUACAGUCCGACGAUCACAUGAGGCCAGGAGGAUAAUUAACUUGAGGAAUAGACAACUUACAUUCACUACAUAUUUAAUCAUGCUUAAAAUGUUUGUAUUUACUGCCAUGCAAUUGAUAUAGUAAAUGGAAUUCUCGGGUGCCAA` — result for “RBNS enrichment (R)”: 0.539.
`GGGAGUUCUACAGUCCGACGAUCCAAUUACAUUUGAAUUUAAAAAUAUUGAGCUCUUGAUUACAAUUUAAUACAUUGUAAAAAGUAUUAAAUCCUUUGAAACAUCUUUUGUUGCUUAUUUAGUUUUUGUUUCUUGGAAUUCUCGGGUGCCAA` — result for “RBNS enrichment (R)”: 1.42.
Under “RBNS enrichment (R)”, `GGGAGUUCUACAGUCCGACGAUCACUCUCCCAGAAGAAAACUUGUUUGCCUUCAACCUUGUUUUCCAGUUCUGCAGCGUCAUGGAGGAUGGGCGGGCGCCAUGCAUGUGCAGGCUCACACUCCCAGCCUCCGCUGGAAUUCUCGGGUGCCAA` is recorded as 1.34.
`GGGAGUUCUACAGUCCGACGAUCGAGGGUCUUUGUAGGAGUUGCUCUUGCUGUGUAAAGCACUAUUGUCUUGGGGUUGAGCCCUAGGGCAGUUCUUGGUAGGUUCUGCUGGGCAGAACAUAUGGGUUAAAUCUUGGAAUUCUCGGGUGCCAA`: “RBNS enrichment (R)” 0.871.
Under “RBNS enrichment (R)”, `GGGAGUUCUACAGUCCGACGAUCUUGUCCACAGACUGCUGGGGUCACUUCUUUGCCCACGGGCUCCCUGCUCCCCCAGUUUUUUUUCUCUCUUUGUUAACAAAUGUGUCUGAGUCUUGGAAAACACCCCAACCUGGAAUUCUCGGGUGCCAA` is recorded as 2.19.
`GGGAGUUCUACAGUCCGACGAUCUGCAGGGCCUGGCAGAUGCACCACGGGCUCACCAGCAGCGUUUACCCACGCUGUGCUUCUCUGCUUGCAUUUCCAGGGAGACCGUGUUUUGAACCGCAUCACCUUUCCUUUGGAAUUCUCGGGUGCCAA`: “RBNS enrichment (R)” 1.14.
`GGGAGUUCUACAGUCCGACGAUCUAUUAGUUUUUUAACCUGCAAUUUGCCUCAGCAACAAAGAAAAAGUGAAUUUUUAAUGCUGAAGAUAAAGUAAGCUAAAGUACCAGCAGAAGCCUUGGCUAUUUAUAGCAUGGAAUUCUCGGGUGCCAA` — result for “RBNS enrichment (R)”: 0.638.
`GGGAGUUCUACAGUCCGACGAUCACAAAGUGCAAUACAGAGCCUUCCCUACCCUGACGCCUCCCAGUCAUCAUCUCCAGAACUCCCAGCGGGGCUCCCUGAGCUCUCAAGGAGAUGCUGCCAUCACUGGGAGGUGGAAUUCUCGGGUGCCAA` — result for “RBNS enrichment (R)”: 0.528.
For `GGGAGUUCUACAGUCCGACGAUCACUUUGAAUGUGAUGAAAUGACACGUUUGGCUGCAUUUGGAUGGUGUCUUAGAACCCUCAUUGCUCAGACCUGAAGGCUACUUCUAGGAGCAUGAAGUUUGAGUUUUGUGUGGAAUUCUCGGGUGCCAA`, “RBNS enrichment (R)” read 1.17.
For `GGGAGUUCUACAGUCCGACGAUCUGAGCCUCUCUGUGCCUUGGGCCCUAAAGCCCCAUGUGUAGUAUAGAGCAAAGGUGAUUCCUGGUGGAGAAGGGGAAAAGCCCUUCUACCCUAGAGUCAUGCCUGGAUCCUGGAAUUCUCGGGUGCCAA`, “RBNS enrichment (R)” read 0.168.
`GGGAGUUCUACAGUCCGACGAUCCUACCCGAUUUGUUUAUUUGCAAUUUGAGCCAUUUAAAGACCAAUAAACUUCCUUUUUUAAAAUGUUUGUGGUGUUACUUGAUGUUUACAAUGUAACAUGUAACAUUCAAUGGAAUUCUCGGGUGCCAA`: “RBNS enrichment (R)” 0.378.
`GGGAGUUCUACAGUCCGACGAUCGGAACACGCGGGUAGAUGAUUUCUAGCAGGCAGGAAGUCCUGUGCGGUGUCACCAUGAGCACCUCCAGCUGUACUAGUGCCAUUGGAAUAAUAAAUUUGAUAAGGUGGUGUGGAAUUCUCGGGUGCCAA`: “RBNS enrichment (R)” 0.486.

Set 2
Target: Histone acetyltransferase KAT6A, winged helix 2, GST fusion (KAT6A, Homo sapiens, UniProt Q92794, residues 85-181)
Method: protein binding microarray
Form: double-stranded DNA, one strand shown
Sample: in vitro
Tested at: not given
Notes: 8-mer, flanks averaged, mean of 2 arrays, mostly near background
Relative to: not given
Reading: higher = stronger binding
Residues (chain): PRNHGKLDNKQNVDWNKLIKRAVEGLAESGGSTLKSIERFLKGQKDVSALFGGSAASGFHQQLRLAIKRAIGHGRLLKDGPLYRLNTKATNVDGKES
`ACCGAGTG` has an E-score of -0.145.
With `ACCCAGGT` the E-score was -0.209.
For `ATACGTAT`, the E-score was 0.0424.
With `ACCTTAGA` the E-score was -0.0617.
The E-score of `CGCTGGTC` is reported as 0.0131.
With `ACCGAGAA` the E-score was -0.131.
With `CGTAGCTA` the E-score was -0.0609.
The E-score of `ACCCGTCA` is reported as -0.0851.
The E-score of `AATCGTCT` is reported as -0.193.
With `CGCATGCA` the E-score was 0.0678.
With `TCCGGAGA` the E-score was -0.107.
For `AAAACTGA`, the E-score was 0.0165.
`AGCCAGTG` has an E-score of -0.131.
With `CGCCTCTC` the E-score was -0.124.
The E-score of `CAGGAGTC` is reported as -0.0441.
For `TAAGTTCA`, the E-score was -0.0808.
The E-score of `ACTGATGG` is reported as -0.162.
The E-score of `ATTTGAGA` is reported as -0.189.
`ATATTCAT` gave an E-score of -0.0277.
For `GAGTAGCC`, the E-score was -0.0337.

Set 3
Target: ABI1, truncated, D143A, DHFR fusion (Arabidopsis thaliana)
Method: DHFR PCA, deep sequencing
Sample: yeast
Notes: methotrexate growth selection, single substitutions
With: (+)-ABA 58 µM
Relative to: wild-type fitted maximum
Reading: higher = stronger binding
Starting sequence: PYL1, truncated, DHFR fusion (Arabidopsis thaliana); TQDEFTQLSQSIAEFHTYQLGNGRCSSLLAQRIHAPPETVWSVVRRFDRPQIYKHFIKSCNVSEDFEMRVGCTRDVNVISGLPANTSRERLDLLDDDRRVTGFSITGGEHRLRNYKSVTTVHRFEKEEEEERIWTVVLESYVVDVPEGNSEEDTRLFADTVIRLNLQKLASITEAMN; partner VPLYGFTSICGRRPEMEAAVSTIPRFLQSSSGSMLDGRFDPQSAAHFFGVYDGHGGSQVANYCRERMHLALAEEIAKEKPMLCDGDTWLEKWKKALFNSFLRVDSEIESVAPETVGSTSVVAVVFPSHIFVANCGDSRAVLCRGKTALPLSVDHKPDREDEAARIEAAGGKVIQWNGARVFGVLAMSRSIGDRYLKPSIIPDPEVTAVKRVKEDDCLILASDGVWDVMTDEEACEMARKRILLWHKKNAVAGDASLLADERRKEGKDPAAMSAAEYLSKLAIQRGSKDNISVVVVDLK
`S80M` — result for “relative binding score”: 13.2%.
`I79T`: “relative binding score” 84.6%.
`E147T` — result for “relative binding score”: 78.8%.
For `L166K`, “relative binding score” read -3.91%.
`H122C`: “relative binding score” 43.7%.
`T173L` — result for “relative binding score”: 58.3%.
`S26E` — result for “relative binding score”: 33.1%.
Under “relative binding score”, `D96K` is recorded as 16%.
Under “relative binding score”, `F47R` is recorded as -6.25%.
`S42R` — result for “relative binding score”: 89.7%.
For `Y18I`, “relative binding score” read 67.4%.
`R69W`: “relative binding score” 39.4%.
`S150R` — result for “relative binding score”: 51.9%.
`K116G` — result for “relative binding score”: 21.3%.
`E129C`: “relative binding score” 90.3%.
Under “relative binding score”, `S59V` is recorded as 62%.
`D3G` — result for “relative binding score”: 74%.
`Y141A`: “relative binding score” -7.45%.

Set 4
Target: CCNB1, cyclin fold, Cln2 fusion (human)
Method: yeast growth competition, sequencing
Sample: yeast
Notes: weak parent motif
Relative to: not given
Reading: higher = stronger binding
Starting sequence: RBL1 docking peptide (human); GSAKRRLFGEDPP
For `P13N`, “normalised enrichment score” read 1.25.
For `A3G`, “normalised enrichment score” read -0.0414.
`D11M` — result for “normalised enrichment score”: 0.435.
`R6A`: “normalised enrichment score” 0.137.
For `R5K F8L`, “normalised enrichment score” read 0.127.
`G1S`: “normalised enrichment score” 0.915.
Under “normalised enrichment score”, `G1E` is recorded as 0.241.
Under “normalised enrichment score”, `P12G` is recorded as 0.68.
`D11Y` — result for “normalised enrichment score”: 1.25.
Under “normalised enrichment score”, `G9T` is recorded as 1.4.
For `L7D`, “normalised enrichment score” read -0.176.
`S2Q`: “normalised enrichment score” 0.521.
Under “normalised enrichment score”, `P12Q` is recorded as 0.203.
`K4N` — result for “normalised enrichment score”: 0.549.
`F8D` — result for “normalised enrichment score”: 0.198.
`S2W` — result for “normalised enrichment score”: -0.32.
`L7W`: “normalised enrichment score” 1.4.
`L7S`: “normalised enrichment score” 0.365.
`K4A` — result for “normalised enrichment score”: 0.926.
For `G1V`, “normalised enrichment score” read 0.933.
`A3C` — result for “normalised enrichment score”: 1.35.
Under “normalised enrichment score”, `F8I` is recorded as 0.752.
`S2N` — result for “normalised enrichment score”: 0.784.

A few entries again (set 3):
`E147T` — result for “relative binding score”: 78.8%.
`S150R` — result for “relative binding score”: 51.9%.
For `L166K`, “relative binding score” read -3.91%.
`K116G` — result for “relative binding score”: 21.3%.
`T173L` — result for “relative binding score”: 58.3%.
`R69W`: “relative binding score” 39.4%.
`H122C`: “relative binding score” 43.7%.
`S80M` — result for “relative binding score”: 13.2%.
`D3G` — result for “relative binding score”: 74%.
`S26E` — result for “relative binding score”: 33.1%.
`I79T`: “relative binding score” 84.6%.
`E129C`: “relative binding score” 90.3%.
